# Assay results gathered from unrelated publications.
# Lines come from different studies, so protocols differ. ± marks the error that the study gave.
SMILES,target or system,assay,test system,setting,how to read,quantity,result
O=C(O)CCC(NP(=O)(O)OCCC[C@@H](NC(=O)CCC(NC(=O)CCCCCNC(=O)c1ccc([18F])cc1)C(=O)O)C(=O)O)C(=O)O (stereo partly drawn),CWR22Rv1 tumour model,,"host not given, spleen","intravenous, 1 h, tumour-bearing",,tracer uptake,1.02 %ID/g
CN(C)CC1CCCCC1(O)c1cccc(O)c1 (stereo not drawn),P-glycoprotein,,Caco-2 TC7,"1 µM, 3 h, pH 7.4, added: elacridar 4 µM",,Papp B to A,16.2 ± 0.5 ×10⁻⁶ cm/s
CCC(=O)N(C)c1ccc(Cl)c(Cl)c1,Salmonella typhimurium,Ames test,TA98,"0.50 mg/plate, with rat liver S9",,revertants,25 ± 9.5 revertants/plate
N=C(N)NCCC[C@@H]1NC(=O)[C@H](CCCCNC(=O)CCOCCOCCOCCOCCNC(=O)CC[C@H](NC(=O)CCOCCOCCOCCOCCNC(=O)CC[C@H](NC(=O)CN2CCN(CC(=O)O)CCN(CC(=O)O)CCN(CC(=O)O)CC2)C(=O)NCCOCCOCCOCCOCCC(=O)N[C@@H](CCC(=O)NCCOCCOCCOCCOCCC(=O)NCCCC[C@@H]2NC(=O)[C@@H](Cc3ccccc3)NC(=O)[C@H](CC(=O)O)NC(=O)CNC(=O)[C@H](CCCNC(=N)N)NC2=O)C(=O)NCCOCCOCCOCCOCCC(=O)NCCCC[C@@H]2NC(=O)[C@@H](Cc3ccccc3)NC(=O)[C@H](CC(=O)O)NC(=O)CNC(=O)[C@H](CCCNC(=N)N)NC2=O)C(=O)NCCOCCOCCOCCOCCC(=O)NCCCC[C@@H]2NC(=O)[C@@H](Cc3ccccc3)NC(=O)[C@H](CC(=O)O)NC(=O)CNC(=O)[C@H](CCCNC(=N)N)NC2=O)NC(=O)[C@@H](Cc2ccccc2)NC(=O)[C@H](CC(=O)O)NC(=O)CNC1=O [indium-111 labelled],,,"athymic nude mice, female, U-87 MG glioma xenograft, tumour and lungs","intravenous, 24 h",baseline: tumour over lungs,tumour to tissue ratio,4.68 ± 1.72
C[C@H](NC(=O)[C@H](CCC(N)=O)NC(=O)[C@H](C)NC(=O)[C@H](CCCCN)NC(=O)[C@H](CCC(N)=O)NC(=O)[C@H](C)NC(=O)[C@H](CCCCN)NC(=O)[C@H](CCC(N)=O)NC(=O)[C@H](C)NC(=O)[C@H](CCC(N)=O)NC(=O)[C@H](CCCCN)NC(=O)[C@H](C)NC(=O)[C@H](CCC(N)=O)NC(=O)[C@H](CCCCN)NC(=O)[C@H](C)NC(=O)[C@H](CCC(N)=O)NC(=O)[C@H](C)NC(=O)[C@H](CCCCN)NC(=O)[C@H](CCC(N)=O)NC(=O)[C@H](C)NC(=O)[C@H](CCCCN)NC(=O)[C@H](CO)NC(=O)[C@H](Cc1ccc(O)cc1)NC(=O)CNC(=O)CNC(=O)CN)C(=O)N[C@@H](CCCCN)C(=O)N[C@@H](CCC(N)=O)C(=O)N[C@@H](C)C(=O)N[C@@H](CCCCN)C(=O)N[C@@H](CCC(N)=O)C(=O)O,,"binding, SPR two-state model",rVλ6Wil fibrils,"300 nM, pH 7.4",,ka1,480000 M⁻¹ s⁻¹
COc1ccc(CNc2nc(N3CCC[C@H]3CO)ncc2C(=O)NN)cc1Cl,Salmonella typhimurium,,TA100,"125 µg/plate, 48 h",,revertant count,143 ± 15
N=C(N)NCCC[C@@H]1NC(=O)[C@H](CCCCNC(=O)CC[C@H](NC(=O)CCOCCOCCOCCOCCNC(=O)CN2CCN(CC(=O)O)CCN(CC(=O)O)CCN(CC(=O)O)CC2)C(=O)NCCCC[C@@H]2NC(=O)[C@@H](Cc3ccccc3)NC(=O)[C@H](CC(=O)O)NC(=O)CNC(=O)[C@H](CCCNC(=N)N)NC2=O)NC(=O)[C@@H](Cc2ccccc2)NC(=O)[C@H](CC(=O)O)NC(=O)CNC1=O [indium-111 labelled],,,"athymic nude mice, female, U-87 MG glioma xenograft, tumour and muscle","intravenous, 1 h",baseline: tumour over muscle,tumour to tissue ratio,6.18 ± 0.49
C[C@@](O)(C(F)F)[C@H](NC(=O)c1ccc(C#CC#CC2CC2)cc1)C(=O)NO,,,"dog, plasma","intravenous, 10 mg/kg",,AUC(0-inf),5.2 µg·h/mL
CCN(Cc1ccccc1)C(=O)CCc1nc(CN2CCN(C(=O)Cc3ccc(OC)c(OC)c3)CC2)no1,"KCNQ4 (Homo sapiens, UniProt P56696)","potassium current, opener, whole-cell patch clamp",CHO stable,"100 nM, -10 mV",,current density,59.8 ± 3.84 pA/pF
Cc1nc([C@H](NC(=O)c2ccc(-c3ccc(Cl)cc3)[nH]2)[C@H]2CCCCN2)sc1CO,MT2,"cell growth or viability, XTT",,,,CC50,~20 µM
COc1cc(C(=O)NCCOCCOCCOCCNC(=O)c2ccc([18F])nc2)ccc1NC(=O)C1NC(CC(C)(C)C)C(C#N)(c2ccc(Cl)cc2F)C1c1cccc(Cl)c1F (stereo not drawn),HepG2 tumour model,,"host not given, kidney","2 h, tumour-bearing",,tracer uptake,2.54 %ID/g
CN[C@](C)(C[18F])C(=O)O,SK-OV-3 tumour model,,"host not given, blood","15 min, tumour-bearing",,tracer uptake,3.1 %ID/g

# For quick reference, copied from above:
SMILES,target or system,assay,test system,setting,how to read,quantity,result
Cc1nc([C@H](NC(=O)c2ccc(-c3ccc(Cl)cc3)[nH]2)[C@H]2CCCCN2)sc1CO,MT2,"cell growth or viability, XTT",,,,CC50,~20 µM
